{"data": "Measurements collected from several papers", "note": "Every numbered part comes from another study and shows a few of its results, in no order. Substitutions count along the parent as printed.", "chain of UniProt Q9Y6R4 (whole entry, looked up)": "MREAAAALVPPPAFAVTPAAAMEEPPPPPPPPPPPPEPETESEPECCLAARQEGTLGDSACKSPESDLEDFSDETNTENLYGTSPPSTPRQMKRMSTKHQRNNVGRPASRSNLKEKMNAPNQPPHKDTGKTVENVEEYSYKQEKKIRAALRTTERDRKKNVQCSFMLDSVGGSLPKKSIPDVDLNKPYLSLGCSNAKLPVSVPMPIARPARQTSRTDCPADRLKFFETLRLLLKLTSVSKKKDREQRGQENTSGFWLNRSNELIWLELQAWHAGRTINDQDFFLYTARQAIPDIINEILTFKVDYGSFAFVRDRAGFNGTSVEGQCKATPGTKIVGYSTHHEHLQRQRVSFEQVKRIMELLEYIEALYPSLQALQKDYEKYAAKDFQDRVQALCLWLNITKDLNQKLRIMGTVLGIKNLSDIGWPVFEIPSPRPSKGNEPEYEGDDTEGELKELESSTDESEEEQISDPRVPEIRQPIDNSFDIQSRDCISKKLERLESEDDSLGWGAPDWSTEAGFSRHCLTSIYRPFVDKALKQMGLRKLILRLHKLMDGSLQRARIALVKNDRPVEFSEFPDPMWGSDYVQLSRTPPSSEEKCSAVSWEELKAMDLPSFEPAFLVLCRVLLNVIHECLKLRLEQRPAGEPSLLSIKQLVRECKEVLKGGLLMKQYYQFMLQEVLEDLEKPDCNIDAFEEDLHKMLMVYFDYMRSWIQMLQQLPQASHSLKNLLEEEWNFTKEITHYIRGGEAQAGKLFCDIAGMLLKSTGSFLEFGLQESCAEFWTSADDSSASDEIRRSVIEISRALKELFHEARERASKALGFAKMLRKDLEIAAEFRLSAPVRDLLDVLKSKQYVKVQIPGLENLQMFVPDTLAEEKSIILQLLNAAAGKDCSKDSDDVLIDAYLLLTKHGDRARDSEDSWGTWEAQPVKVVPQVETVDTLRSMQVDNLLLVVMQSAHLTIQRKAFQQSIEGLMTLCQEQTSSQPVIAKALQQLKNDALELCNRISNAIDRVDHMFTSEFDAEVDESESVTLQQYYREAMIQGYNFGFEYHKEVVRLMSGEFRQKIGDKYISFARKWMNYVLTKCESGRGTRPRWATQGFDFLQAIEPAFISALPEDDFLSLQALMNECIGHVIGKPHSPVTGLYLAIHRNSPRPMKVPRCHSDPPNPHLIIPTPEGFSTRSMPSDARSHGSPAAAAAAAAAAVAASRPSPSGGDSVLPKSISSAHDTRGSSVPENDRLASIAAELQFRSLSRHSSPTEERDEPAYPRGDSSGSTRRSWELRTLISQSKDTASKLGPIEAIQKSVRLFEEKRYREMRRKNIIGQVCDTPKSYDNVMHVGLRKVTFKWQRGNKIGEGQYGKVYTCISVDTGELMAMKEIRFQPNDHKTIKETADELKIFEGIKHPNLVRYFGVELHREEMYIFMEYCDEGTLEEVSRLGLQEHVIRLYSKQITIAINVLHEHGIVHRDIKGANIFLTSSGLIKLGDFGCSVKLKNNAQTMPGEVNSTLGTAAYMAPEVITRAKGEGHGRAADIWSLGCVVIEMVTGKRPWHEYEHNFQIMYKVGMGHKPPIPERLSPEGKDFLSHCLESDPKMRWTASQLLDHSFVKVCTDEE"}
{"data": "Set 1", "target": "Ras GTPase-activating protein-binding protein 1, full length (G3BP1, Homo sapiens, UniProt Q13283)", "method": "RNA Bind-n-Seq", "molecule type": "RNA", "medium": "in vitro", "tested at": "200 nM", "notes": "whole 134-nt RNA, ends assumed", "with": "150 mM LiCl", "reference": "input library", "reading": "higher = stronger binding", "all molecules": "7-deaza-guanosine replaces G", "all sequences stand within": "GGGAGUUCUACAGUCCGACGAUC … UGGAAUUCUCGGGUGUCAAGG", "chain of UniProt Q13283 (whole entry, looked up)": "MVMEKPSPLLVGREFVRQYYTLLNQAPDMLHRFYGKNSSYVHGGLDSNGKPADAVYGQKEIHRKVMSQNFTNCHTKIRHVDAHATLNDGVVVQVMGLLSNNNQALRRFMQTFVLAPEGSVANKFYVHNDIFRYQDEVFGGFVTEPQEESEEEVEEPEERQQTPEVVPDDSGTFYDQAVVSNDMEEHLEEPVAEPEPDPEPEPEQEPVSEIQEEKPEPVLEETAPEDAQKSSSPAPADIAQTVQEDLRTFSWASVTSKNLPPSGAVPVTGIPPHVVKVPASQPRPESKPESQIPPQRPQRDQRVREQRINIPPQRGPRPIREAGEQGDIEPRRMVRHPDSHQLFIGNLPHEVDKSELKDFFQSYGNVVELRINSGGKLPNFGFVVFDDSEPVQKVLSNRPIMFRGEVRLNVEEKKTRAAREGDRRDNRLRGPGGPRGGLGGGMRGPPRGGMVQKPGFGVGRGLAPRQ"}
{"Oligonucleotide": "CACAGACAACACGCACCCACACAGACACAGAGGGAAGGGGUUGGGAUGGGGACAGGGUGCACAGCAGGGCGGGGUAGGAACCCAGCCCCU", "log2 enrichment": 0.714}
{"Oligonucleotide": "ACCAUGCAGGUGGGCAUCUUUGGGAAGUGGGGCAAGGGGGGGAUAGGGAGGGGGGUAACACUUUGGGAACGGGUGGUCCCAGGUCGUUUC", "log2 enrichment": 0.168}
{"Oligonucleotide": "UCCUGUGCUACACAUCGUAUGUACCGAAUCGGGCCCCCCGGCCCCCCGGCCCCCCGGGGAAAGUAUUAUGUUACGCCGUUCGGAUCUGCA", "log2 enrichment": 0.198}
{"Oligonucleotide": "CCUGUGCUACACAUCGUAUGUACCGAAUCGGGGAAAAAAGGGAAAAAAGGGGAAAAAAGGAAAGUAUUAUGUUACGCCGUUCGGAUCUGC", "log2 enrichment": 0.682}
{"Oligonucleotide": "UCCUCAAGUCCUGUGCUACACAUCGUAUGUACCGAAUCGGGGUGGGUGGUGGAAAGUAUUAUGUUACGCCGUUCGGAUCUGCACUUCCAG", "log2 enrichment": -0.133}
{"Oligonucleotide": "UCAAGUCCUGUGCUACACAUCGUAUGUACCGAAUCGGUGGUUUUUGGAAAAAGGAAAGUAUUAUGUUACGCCGUUCGGAUCUGCACUUCC", "log2 enrichment": -0.247}
{"Oligonucleotide": "UGGGAGGUGGAUUUUGUUUAUUUUUUUAGCUCAUUUCCAGGGGUGGGAAUUUUUUUUUAAUAUGUGUCAUGAAUAAAGUGGUUUUUGAAA", "log2 enrichment": 0.0035}
{"Oligonucleotide": "AAGUCCUGUGCUACACAUCGUAUGUACCGAAUCGGCCCGGGGCCCGGGGCCCGGGGAAAGUAUUAUGUUACGCCGUUCGGAUCUGCACUU", "log2 enrichment": -0.218}
{"data": "Set 2", "target": "CCNE1, cyclin fold, Cln2 fusion (human)", "method": "yeast growth competition, sequencing", "medium": "yeast", "notes": "strong parent motif", "reference": "not given", "reading": "higher = stronger binding", "starting sequence": "E2F1 docking peptide (human); PPVKRRLDLETDH; partner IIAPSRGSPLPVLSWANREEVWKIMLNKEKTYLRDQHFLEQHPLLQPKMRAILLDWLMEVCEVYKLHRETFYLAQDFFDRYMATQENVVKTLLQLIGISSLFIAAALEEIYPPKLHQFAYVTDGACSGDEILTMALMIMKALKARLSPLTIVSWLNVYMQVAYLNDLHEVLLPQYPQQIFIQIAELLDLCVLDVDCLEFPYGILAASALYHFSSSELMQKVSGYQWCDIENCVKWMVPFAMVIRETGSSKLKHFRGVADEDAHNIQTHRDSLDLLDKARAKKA"}
{"Change": "R5E", "normalised enrichment score": 0.892}
{"Change": "P2Y", "normalised enrichment score": 1.44}
{"Change": "D12K", "normalised enrichment score": 1.61}
{"Change": "P2S", "normalised enrichment score": 1.92}
{"Change": "P2H", "normalised enrichment score": 2.23}
{"Change": "R5W", "normalised enrichment score": 0.369}
{"Change": "K4I", "normalised enrichment score": 0.951}
{"Change": "P2L", "normalised enrichment score": 0.704}
{"data": "Set 3", "target": "TAR DNA-binding protein 43, full length, His tag (TARDBP, Homo sapiens, UniProt Q13148, residues 1-414)", "method": "RNA Bind-n-Seq", "molecule type": "RNA", "medium": "in vitro", "tested at": "20 nM", "notes": "6-mer, flanks averaged, single round", "with": "150 mM LiCl", "reference": "input library", "reading": "higher = stronger binding"}
{"Oligonucleotide": "ACGAUG", "6-mer enrichment (R)": 0.87}
{"Oligonucleotide": "CUGGGG", "6-mer enrichment (R)": 1.15}
{"Oligonucleotide": "GCAAUA", "6-mer enrichment (R)": 0.889}
{"Oligonucleotide": "UCUUCU", "6-mer enrichment (R)": 0.931}
{"Oligonucleotide": "CCACCA", "6-mer enrichment (R)": 0.994}
{"Oligonucleotide": "GCCGUA", "6-mer enrichment (R)": 0.912}
{"Oligonucleotide": "GGUGAU", "6-mer enrichment (R)": 1.15}
{"Oligonucleotide": "CCUGUC", "6-mer enrichment (R)": 0.905}
{"data": "Mixed results"}
{"SMILES": "CS(=O)(=O)NCC[C@H](NC(=O)c1cncc2c1cnn2-c1ccc(F)cc1)c1ccnc(S(C)(=O)=O)c1", "target": "Mitogen-activated protein kinase kinase kinase 4 (MAP3K4, Homo sapiens, UniProt Q9Y6R4)", "effect on": "cell-free assay", "method": "competition with immobilised ligand", "tested at": "1 µM", "quantity": "remaining binding", "result": "84%"}
{"note": "Some of these lines once more (set 1):"}
{"Oligonucleotide": "ACCAUGCAGGUGGGCAUCUUUGGGAAGUGGGGCAAGGGGGGGAUAGGGAGGGGGGUAACACUUUGGGAACGGGUGGUCCCAGGUCGUUUC", "log2 enrichment": 0.168}
{"Oligonucleotide": "CACAGACAACACGCACCCACACAGACACAGAGGGAAGGGGUUGGGAUGGGGACAGGGUGCACAGCAGGGCGGGGUAGGAACCCAGCCCCU", "log2 enrichment": 0.714}
{"Oligonucleotide": "UCCUCAAGUCCUGUGCUACACAUCGUAUGUACCGAAUCGGGGUGGGUGGUGGAAAGUAUUAUGUUACGCCGUUCGGAUCUGCACUUCCAG", "log2 enrichment": -0.133}
{"Oligonucleotide": "CCUGUGCUACACAUCGUAUGUACCGAAUCGGGGAAAAAAGGGAAAAAAGGGGAAAAAAGGAAAGUAUUAUGUUACGCCGUUCGGAUCUGC", "log2 enrichment": 0.682}
